Results pooled from the literature.
Compare with care: the assays were run in different laboratories. ± marks the error that the study gave.
Target: Cytochrome P450 2D6 (CYP2D6, Homo sapiens, UniProt P10635)

SMILES = Cc1cn2c(C(=O)NCc3ccc(C(F)(F)F)cc3)c(C)nc2s1; test = inhibitor; endpoint = IC50; result = > 20 µM
SMILES = CNC(=O)Oc1cc(C)c([S+](C)[O-])c(C)c1 (stereo not drawn); test = inhibitor; system = human liver microsomes; setting = 2 µM, pH 7.4, together with: dextromethorphan; endpoint = inhibition; result = < 0%
SMILES = Nc1nc(Nc2ccc(Cl)cc2)nn1S(=O)(=O)c1ccc2ccccc2c1; setting = 20 (unit not given), pH 7.4; endpoint = IC50; result = > 50 µM
SMILES = Cc1ccc2nc(C)c(C(=O)NCc3ccc(C(F)(F)F)cc3)n2c1; test = inhibitor; endpoint = IC50; result = > 20 µM
SMILES = CCN(CC)CCOc1ccc(-c2nnn(Cc3ccc(OC)cc3)c2N)cc1; test = enzyme activity, inhibitor; setting = concentration not given; endpoint = inhibition; result = no inhibition
SMILES = CC[C@@H]1CN2CCc3c([nH]c4cccc(OC)c34)[C@@H]2C[C@@H]1/C(=C\OC)C(=O)OC; test = recombinant enzyme metabolism; setting = 2 µM, 60 min; endpoint = remaining compound; result = 82%
SMILES = CCCS(=O)(=O)c1ccc2[nH]c(NC(=O)OC)nc2c1; test = inhibitor; system = human liver microsomes; setting = 2 µM, pH 7.4, together with: dextromethorphan; endpoint = inhibition; result = < 0%
SMILES = C=CC(=O)Nc1cc(Nc2nccc(-c3cn(C)c4ccccc34)n2)c(OCC(F)(F)F)nc1N(C)CCN(C)C; test = dextromethorphan O-demethylation, inhibitor; system = human liver microsomes; setting = 10 µM; endpoint = remaining activity; result = 112%
SMILES = COc1ccc2c(c1)[C@]13CCCC[C@@H]1[C@H](C2)N(C)CC3; system = human, plasma; setting = oral, dose not given, day 12, together with: fluoxetine; endpoint = AUC; result = 1.85 ± 0.8 µM·h

A few entries again:
SMILES = CNC(=O)Oc1cc(C)c([S+](C)[O-])c(C)c1 (stereo not drawn); test = inhibitor; system = human liver microsomes; setting = 2 µM, pH 7.4, together with: dextromethorphan; endpoint = inhibition; result = < 0%
